# Assay results from different studies.
# Each numbered part is a random draw from the data of one study; scales do not carry over between parts. Substitutions count along the parent as printed.

# Block 1 — method: protein binding microarray; molecule type: double-stranded DNA, one strand shown; matrix: in vitro; concentration: not given; baseline: not given; reading: higher = stronger binding
# Target: Histone acetyltransferase KAT6A, winged helix 1, GST fusion (KAT6A, Homo sapiens, UniProt Q92794, residues 1-85)
# Notes: 8-mer, flanks averaged, mean of 2 arrays, mostly near background
# Target sequence (chain): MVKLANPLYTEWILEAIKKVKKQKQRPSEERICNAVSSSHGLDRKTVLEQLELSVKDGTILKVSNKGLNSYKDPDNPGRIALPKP
Strand,E-score
GGCGCTAC,0.294
AGCTGTAG,-0.185
CAGGTTTA,-0.135
TTAAATAA,-0.0378
ACAATTCC,-0.195
TCTACGAA,-0.287
AAAAGTGG,-0.154
AAATACAT,-0.138
ATTTTATG,-0.0797
GAGGCGCA,0.238
CCAGCCCG,0.122
GAGAGTCC,0.00903
CACCGTAC,0.183
AGTAGAGG,-0.264
GGGGTGAA,-0.174
GGAAGGCC,0.00248
GTAGCCAC,-0.119
AGGAACGG,0.102
CGTGGTGA,0.043
ACTTGAGG,-0.185
CTTGGCTA,-0.272
CTTACACA,-0.182
ACACCGCG,0.341
GTCAAGCA,-0.0902
GCGCAAGA,0.225

# Block 2 — method: RNAcompete; molecule type: RNA; matrix: in vitro; concentration: 20 nM; notes: 7-mer, probes averaged, single round; baseline: mean of 7-mers; reading: higher = stronger binding
# Target: PABPC1L2, full length, GST fusion (mouse, UniProt A0ABA7IW68)
# Target sequence (chain): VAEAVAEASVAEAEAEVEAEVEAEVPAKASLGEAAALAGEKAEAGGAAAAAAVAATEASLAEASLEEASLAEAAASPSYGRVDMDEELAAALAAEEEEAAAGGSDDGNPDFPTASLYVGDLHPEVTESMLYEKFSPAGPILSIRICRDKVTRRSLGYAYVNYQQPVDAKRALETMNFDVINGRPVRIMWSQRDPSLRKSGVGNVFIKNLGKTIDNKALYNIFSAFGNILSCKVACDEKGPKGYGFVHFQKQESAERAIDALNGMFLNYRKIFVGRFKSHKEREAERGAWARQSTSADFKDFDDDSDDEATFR
Strand,7-mer Z-score
UUGUUUC,-0.508
CCUAUUA,-0.289
CUCGGCU,-0.362
AUUUUGC,-0.271
GUACUGC,-0.195
CACUCAA,-0.0156
AAAGAGU,1.68
CAAGCCG,-0.139
GAGAUGG,0.177
UCCCCAU,-0.411
CGAUAUC,-0.166
GUCGCGU,-0.385
UACUAAC,-0.141
GGGAUCC,0.00979
GGUAUCG,-0.0627
GAAAUGG,0.425

# Block 3 — method: RNA Bind-n-Seq; molecule type: RNA; matrix: in vitro; concentration: 200 nM; notes: whole 134-nt RNA, ends assumed; with: 150 mM KCl; baseline: input library; reading: higher = stronger binding
# Target: Fragile X messenger ribonucleoprotein 1, C-terminal low-complexity region (Fmr1, Mus musculus, UniProt P35922)
Strand,log2 enrichment
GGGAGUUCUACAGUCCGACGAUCGCAGGAAGUAAAAACAAAUGGAAAUGCUUCGGAUAGUGGCAGGGGUAGGGGUUGCUAAGGAAAGGGUGGGAUGGGAGUGGGUAAAGAGUUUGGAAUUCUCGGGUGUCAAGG,0.0233
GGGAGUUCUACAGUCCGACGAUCUGUCCCUGACUCUCCAUUUCCCCAUCUGAGUGGAUUUGGACCUAAUAGGGCACUGGAGCUGGUUCGAAUCCUGACUGGACUACUUGGCAAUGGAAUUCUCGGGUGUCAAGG,0.106
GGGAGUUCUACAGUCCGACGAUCGUCCUGUGCUACACAUCGUAUGUACCGAAUCGGGGAAAAAAAGGGGUUUGGGGUGGGGAAAGUAUUAUGUUACGCCGUUCGGAUCUGCACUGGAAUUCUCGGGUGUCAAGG,0.444
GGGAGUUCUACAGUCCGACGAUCCAAGUCCUGUGCUACACAUCGUAUGUACCGAAUCGGGGAAAGGAAAGGGAAAGGGAAAGUAUUAUGUUACGCCGUUCGGAUCUGCACUUCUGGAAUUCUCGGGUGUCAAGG,0.0487
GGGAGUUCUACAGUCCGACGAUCGUCCUGUGCUACACAUCGUAUGUACCGAAUCGGGCCCCCGGGGCCCCCGGGGCCCCCGGAAAGUAUUAUGUUACGCCGUUCGGAUCUGCAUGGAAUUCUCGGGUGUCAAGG,0.444
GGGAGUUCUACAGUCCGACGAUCGCAGGAAGUAAAAACAAAUGGAAAUGCUUCGGAUAAUGGCAGGGGUGGGGGUUGCUAAGGAAAGGGUGGGAUGGGAGUGGGUAAAGAGUUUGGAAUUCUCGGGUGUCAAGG,0.142
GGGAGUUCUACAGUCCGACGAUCUAACUUUAGAGGAGGAUCUGAUGGAUAUGGCAGUGGACGUGGAUUUGGGGAUGGCUAUAAUAGGUAUGGAGGAGGACCUGGAGGUGGCAAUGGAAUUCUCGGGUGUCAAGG,0.35
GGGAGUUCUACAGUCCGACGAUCCCUGUGCUACACAUCGUAUGUACCGAAUCGGGAAAAAAAGGGAAAAAAAGGAAAAAAAGGGAAAGUAUUAUGUUACGCCGUUCGGAUCUGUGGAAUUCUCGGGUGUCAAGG,-0.946
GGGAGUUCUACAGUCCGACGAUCUAACUUUAGAGGAGGAUCUGAUGGAUAUGGCAGUGGACGUGGAUUUGGGGAUGGCUAUAAUCGGUAUGGAGGAGGACCUGGAGGUGGCAAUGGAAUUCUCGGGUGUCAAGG,0.172
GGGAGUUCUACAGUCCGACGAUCGUAGGAAGUAAAAACAAAUGGAAAUGCUUCGGAUAGUGGCAGGGGUGGGGGUUGCUAAGGAAAGGGUGGGAUGGGAGUGGGUAAAGAGUUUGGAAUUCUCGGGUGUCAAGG,0.641

# Block 4 — method: Sort-seq; refers to: YFP reporter; matrix: E. coli; notes: PhoQ-PhoP variant library; with: 10 µM Mg2+; baseline: high Mg2+ state; reading: higher = stronger signaling
# Molecule: PhoQ, residues 284 288 289 292 302 303 TLSLKA
target,fold induction
"PhoP, residues 12 14 15 18 19 HHYTI (Escherichia coli, UniProt P23836)",10.1
"PhoP, residues 12 14 15 18 19 AYFRS (Escherichia coli, UniProt P23836)",2.79
"PhoP, residues 12 14 15 18 19 SFCSL (Escherichia coli, UniProt P23836)",9.78

# Block 5 — method: universal PBM; molecule type: double-stranded DNA, one strand shown; matrix: in vitro; concentration: 600 nM; reading: higher = stronger binding
# Target: Sal-like protein 4, full length isoform A (SALL4, Homo sapiens, UniProt Q9UJQ4, residues 1-1053)
# Sequence of UniProt Q9UJQ4 (whole entry, looked up): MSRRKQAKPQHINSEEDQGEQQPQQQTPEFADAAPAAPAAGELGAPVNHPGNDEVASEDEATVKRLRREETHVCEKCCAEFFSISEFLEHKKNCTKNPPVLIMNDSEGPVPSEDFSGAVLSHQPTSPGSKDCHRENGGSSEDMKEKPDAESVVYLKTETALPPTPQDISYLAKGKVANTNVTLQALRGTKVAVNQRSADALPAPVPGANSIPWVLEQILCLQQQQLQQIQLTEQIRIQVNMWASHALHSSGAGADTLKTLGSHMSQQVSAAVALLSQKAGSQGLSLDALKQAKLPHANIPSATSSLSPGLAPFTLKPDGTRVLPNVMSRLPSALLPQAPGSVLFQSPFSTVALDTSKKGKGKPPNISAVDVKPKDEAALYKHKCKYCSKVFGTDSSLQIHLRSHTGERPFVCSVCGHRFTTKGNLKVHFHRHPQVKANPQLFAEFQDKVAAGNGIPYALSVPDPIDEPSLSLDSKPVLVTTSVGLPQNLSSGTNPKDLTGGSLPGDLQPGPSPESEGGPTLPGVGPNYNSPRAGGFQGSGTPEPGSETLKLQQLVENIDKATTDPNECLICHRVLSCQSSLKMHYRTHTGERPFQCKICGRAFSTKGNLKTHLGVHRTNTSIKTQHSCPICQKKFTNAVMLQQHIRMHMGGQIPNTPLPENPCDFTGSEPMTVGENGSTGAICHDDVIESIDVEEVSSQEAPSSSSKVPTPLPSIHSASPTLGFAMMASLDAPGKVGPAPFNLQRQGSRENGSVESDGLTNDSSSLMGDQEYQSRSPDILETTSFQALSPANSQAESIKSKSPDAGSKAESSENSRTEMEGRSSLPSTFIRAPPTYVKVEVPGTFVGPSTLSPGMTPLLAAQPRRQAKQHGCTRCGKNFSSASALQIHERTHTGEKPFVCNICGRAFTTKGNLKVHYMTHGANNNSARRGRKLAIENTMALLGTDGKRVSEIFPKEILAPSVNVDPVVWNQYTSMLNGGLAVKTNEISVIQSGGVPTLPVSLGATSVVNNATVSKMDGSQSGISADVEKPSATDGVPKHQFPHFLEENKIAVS
# Notes: 8-mer, flanks averaged, mean of replicates
Strand,E-score
CCGATTGC,-0.0592
CCATGCGA,-0.0537
GAAAAGGC,0.016
AGTATAAA,0.317
GAGGCCAA,-0.176
ACAGGATC,-0.159
GTCAGACA,-0.0268
AAACTGGC,-0.24
TCAACGAA,0.121
AAGCTATT,0.187
CGTGAAGC,-0.247
AAATGTGA,0.247
TGCCGGAA,-0.0461
GGCCCTGA,-0.194
ACTGCATA,0.156
ACAAGGAT,0.23
GCAAGCCC,-0.292
TGGCCCAA,-0.205
GCGCATCA,0.0337
GCGAATTA,0.24
CGCTTCGA,-0.362
GGCCACTA,-0.264
ACCAAGTC,-0.0166
GAGTGGAA,0.107
TCTCCAGA,-0.116

# Block 6 — method: DHFR PCA, deep sequencing; matrix: yeast; with: (+)-ABA 710 µM; baseline: wild-type fitted maximum; reading: higher = stronger binding
# Target: ABI1, truncated, D143A, DHFR fusion (Arabidopsis thaliana)
# Notes: methotrexate growth selection, single substitutions
# Parent: PYL1, truncated, DHFR fusion (Arabidopsis thaliana); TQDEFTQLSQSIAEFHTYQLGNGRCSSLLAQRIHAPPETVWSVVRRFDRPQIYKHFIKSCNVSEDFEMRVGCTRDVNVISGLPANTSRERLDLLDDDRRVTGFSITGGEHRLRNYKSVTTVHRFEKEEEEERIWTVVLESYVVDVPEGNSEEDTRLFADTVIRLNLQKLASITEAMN; partner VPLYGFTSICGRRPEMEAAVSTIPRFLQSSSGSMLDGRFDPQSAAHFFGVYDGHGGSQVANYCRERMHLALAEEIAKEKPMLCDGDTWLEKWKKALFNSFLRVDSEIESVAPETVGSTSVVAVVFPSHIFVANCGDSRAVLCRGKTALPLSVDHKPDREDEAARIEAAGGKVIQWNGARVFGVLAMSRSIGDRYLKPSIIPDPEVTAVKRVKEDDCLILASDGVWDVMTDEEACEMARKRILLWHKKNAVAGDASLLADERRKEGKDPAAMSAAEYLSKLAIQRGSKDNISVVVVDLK
Substitution,relative binding score [%]
A158Q,15.5
Q51L,74
V62S,86.7
D97S,116
S140V,6.45
Q19H,103
I79D,79.7
S11G,103
L138G,2.95
T119E,4.39
E174Y,88.5
L138E,6.5
V137H,-19.5

# Block 7 — target: CCND3, cyclin fold, Cln2 fusion (human); method: yeast growth competition, sequencing; matrix: yeast; notes: weak parent motif; baseline: not given; reading: higher = stronger binding
# Parent: SLBP docking peptide (human); ARYKRKLLINDFG
Substitution,normalised enrichment score
FRYKRKLLINDFG [A1F],0.0235
ARYKRCLLINDFG [K6C],0.277
ARYKRKLMINDFG [L8M],0.182
AQYKRKLLINDFG [R2Q],0.254
ARYKRKNLINDFG [L7N],0.23
ARYKRKLLINSFG [D11S],0.114
ARYKRKLLIPDFG [N10P],0.172
ALYKRKLLINDFG [R2L],0.153
ARYKRKLLINKFG [D11K],0.122
ARYKRTLLINDFG [K6T],0.165
ARYKTKLLINDFG [R5T],0.107
MRYKRKLLINDFG [A1M],0.18
ARYKRKLLINDGG [F12G],0.187
ARYKEKLLINDFG [R5E],0.137
ARGKRKLLINDFG [Y3G],0.129
ARYKRKLLINDFD [G13D],0.084
ARYKRKLLVNDFG [I9V],0.124
ARYKYKLLINDFG [R5Y],0.158
ARYYRKLLINDFG [K4Y],0.126
ARYKRKLLINLFG [D11L],0.104
ARYKRMLLINDFG [K6M],0.129
